Assay results gathered from unrelated publications.
Each line is one published result; not all experiments were run side by side. “And” joins repeats or separate records; there may be more than shown.
Target: Receptor-interacting serine/threonine-protein kinase 2 (RIPK2, Homo sapiens, UniProt O43353)

Cc1cccc(O[C@H]2CCC[C@@H](C(C)CNCc3ccncc3)C2)c1 (relative stereo)  inhibition (enzyme activity, inhibitor; 1 µM): -1%
CCN1CCN(Cc2ccc(C(=O)Nc3ccc(C)c(NCc4cnc5[nH]ccc5c4OC)c3)cc2C(F)(F)F)CC1  remaining binding (binding, competition with immobilised ligand; 1 µM): 9.6%
COc1ccc(NC(=O)Nc2ccc3c(c2)C(=O)N(C(C)CO)CC(C)C(CN(C)Cc2ccc4c(c2)OCO4)O3)cc1 (centres unmarked)  remaining activity (kinase activity, KinaseProfiler; 0.03 µM, species human; reference: control): 92%
CC(C)=CC1OC(C)(C)C2C=C3C(=O)C(Cl)=CC(O)C3C3C(O)C4OC4C(=O)C132 (centres unmarked)  remaining binding (cell-free assay, competition with immobilised ligand; 10 µM): 100%
O=C=[N][Ru-4]123([n]4c5ccc(O)cc5c5c6c(c7cc(F)c[n+]1c7c54)C(=O)NC6=O)[S+]1CC[S+]2CC[S+]3CC1 (centres unmarked)  remaining activity (enzyme activity; 100 nM, human enzyme, together with: 10 µM ATP; reference: untreated): 87%
Nc1ncc(-c2cc(-c3cnn(CC(F)(F)F)c3)ncc2F)nc1C(=O)NC1CNCC(F)C1 (centres unmarked)  remaining activity (enzyme activity; 1 µM; reference: DMSO control): 77.8%
COc1c(OCCCN2CCOCC2)ccc2c1N=C(NC(=O)c1cnc(N)nc1)N1CCN=C21  remaining activity (kinase activity, inhibitor; 1 µM; reference: untreated control): 111%
COc1cc(Nc2nc(C)cc(-c3cnn4nc(OC)ccc34)n2)cc(C(F)(F)F)c1  remaining binding (binding, competition with immobilised ligand; 1 µM): 100%
COc1c(Cl)cccc1Nc1c(-c2ccncc2C#C[C@@]2(C)CCCN2C(=O)/C=C/CN(C)C)[nH]c2c1C(=O)NCC2  remaining binding (binding, competition with immobilised ligand; 3 µM): 73%
CNC(=O)C1CCN(c2cc(C)c(F)cc2NC(=O)c2ccc(-c3cc(O)ccc3C)c(C)c2)CC1  remaining binding (binding, competition with immobilised ligand; 1 µM): 40%
NC(=O)C[C@H]1CCc2sc3ncnc(O[C@H]4CC[C@H](N5CCOCC5)CC4)c3c21  inhibition (enzyme activity, inhibitor; 10 µM): 7%
N[C@H]1CC[C@H](Nc2nccc(-c3cccnc3Oc3ccc(NC(=O)NC4CC4)c4ccccc34)n2)CC1  log2 LFQ intensity (kinobead competition pulldown; HEK293/HCT116 lysate mixture; 10 µM, 1 h, 4 °C; lower = stronger competition): 22.1 and 18.9 and 21.9
CCn1cc(C(=O)O)c(=O)c2c(N)c(F)c(NC3CCCCC3)cc21  inhibition (kinase activity; 0.1 µM, together with: ATP at Km): 2.9%
c1ccc2c(Nc3cc(C4CCC4)[nH]n3)nc(Nc3ccc4nc[nH]c4c3)nc2c1  remaining activity (enzyme activity, inhibitor; 0.25 µM): 18%
O=C(Cc1ccc(OCc2ccccc2)cc1)NC1(C(=O)O)CCN(C(=O)c2ccc(-c3cccc(Cl)c3)cc2)CC1  activity vs control (enzyme activity, inhibitor; 10 µM): 120%
CCN1CCN(Cc2ccc(NC(=O)c3ccc(C)c(NC(=O)c4cncc(-c5cccs5)c4)c3)cc2C(F)(F)F)CC1  remaining binding (binding, competition with immobilised ligand; 1 µM): 16%
C=CC(=O)Nc1cccc(-c2cnc3[nH]cc(C(=O)NC(C)(C)C)c3n2)c1  inhibition (enzyme activity, inhibitor; 0.1 µM): 2%

Some of these lines once more:
O=C=[N][Ru-4]123([n]4c5ccc(O)cc5c5c6c(c7cc(F)c[n+]1c7c54)C(=O)NC6=O)[S+]1CC[S+]2CC[S+]3CC1 (centres unmarked)  remaining activity (enzyme activity; 100 nM, human enzyme, together with: 10 µM ATP; reference: untreated): 87%
Nc1ncc(-c2cc(-c3cnn(CC(F)(F)F)c3)ncc2F)nc1C(=O)NC1CNCC(F)C1 (centres unmarked)  remaining activity (enzyme activity; 1 µM; reference: DMSO control): 77.8%
